Results collected from several papers.
Parts stem from different laboratories: compare values within a part only. Changes are numbered by the printed parent chain.

Block 1
Target: CCNB2, cyclin fold, Cln2 fusion (human)
Method: yeast growth competition, sequencing
Matrix: yeast
Notes: weak parent motif
Baseline: not given
Direction: higher = stronger binding
Starting sequence: ORC1 docking peptide (human); PRARKRLELGNLG
Change | normalised enrichment score
PRARKHLELGNLG [R6H] | 0.0844
PRARKRLELRNLG [G10R] | 0.56
PRARKELELGNLG [R6E] | -0.311
PTARKRLELGNLG [R2T] | 0.64
PRARKRLELINLG [G10I] | 0.552
PRARKRLELLNLG [G10L] | 1.18
PRAMKRLELGNLG [R4M] | 0.265
PRARKRNELGNLG [L7N] | -0.0104
PRARKRLELGNLA [G13A] | -0.0684
PRARKSLELGNLG [R6S] | 0.344
PMARKRLELGNLG [R2M] | 0.619
PRARKRLELGNLT [G13T] | 0.503
PRARKRLELGNMG [L12M] | 0.645
PRARKRCELGNLG [L7C] | 0.664
PRARKRLELGNYG [L12Y] | 0.457
PRARKRGELGNLG [L7G] | -0.0601
DRARKRLELGNLG [P1D] | 0.728
PRARKRLILGNLG [E8I] | 0.509
PRPRKRLELGNLG [A3P] | 0.854
PRCRKRLELGNLG [A3C] | 0.787
PRARKRLELGNTG [L12T] | 0.654

Block 2
Target: RING finger protein unkempt homolog, zinc fingers 1-6, GST-SBP tag (UNK, Homo sapiens, UniProt Q9C0B0, residues 30-357)
Chain of UniProt Q9C0B0 (30-357, looked up): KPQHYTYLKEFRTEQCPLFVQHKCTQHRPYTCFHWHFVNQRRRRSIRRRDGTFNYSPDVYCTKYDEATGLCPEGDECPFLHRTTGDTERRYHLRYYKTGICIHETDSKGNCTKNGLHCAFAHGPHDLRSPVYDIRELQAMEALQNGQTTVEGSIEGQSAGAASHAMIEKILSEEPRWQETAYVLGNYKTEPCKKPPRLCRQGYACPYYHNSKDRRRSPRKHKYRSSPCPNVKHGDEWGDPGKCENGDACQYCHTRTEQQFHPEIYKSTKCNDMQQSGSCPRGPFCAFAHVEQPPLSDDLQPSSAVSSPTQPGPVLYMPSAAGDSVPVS
Method: RNA Bind-n-Seq
Form: RNA
Matrix: in vitro
Tested at: not given
Notes: RNA with constant flanks, human-mouse chimeric sites, ends assumed
Baseline: input RNA pool
Direction: higher = stronger binding
All sequences stand within: GGGAGUUCUACAGUCCGACGAUC … CAACAGAGGAUUGAGCAUCA
Strand | bound/input enrichment [ratio]
GGUGGGGUGGUCAUUGCCGUUUGAGCUGCUGAUUUUCAUGAGUCGCCUUCAAAACUCUCGUGUAGGGUUGACAAUGUGGGGGGGUGGGAAAUCUAGCUUAUUCUUUUAUUUUCAAGUCCA | 5.67
ACUCAGAGAUCCACCUCCCAAAGUGCUCUGGAGCUCUGUGUGGCCACCACACCUAACUUGAUGGAUAUAUAUUUUUUUUAAUAUGAAUCUUCCUGUUCGUCCAGGGAAGAAAGAUUUGUU | 1.45
GUGUCCUGCUUUCAACUUAAAUCACUGAGGCAUCUCUACUGUUCUGUUAAAAUCAGGACUGUAGCGCUGUGUCACCACAGAUGAGAACAGAAGCAGCCUUUCUGUGGAGGGUGGGAAUGA | 0.144
AGAGAAAUGAGAAAGAAUCUUACACAAGAAGAGAUGCAAAGAAUGUCUACUAGAGUCCUUUUAGCCACUCUUUCCAUUCCUAUUACUCCUGAGCGAACGGAUAUUGCUCGACUUUUGGAU | 0.153
GGCUGCUGGUGACUGUCCUGGAGUGGCUGGAGUUCCCGCCGGAGCGCGGCCAGACUAAUUUUAGAAAAUGCCAAGUAGGAAGUUUGUCGAUGGUGAAGUGGUAAGAGGCCGAUGGCCUGG | 3.12
UUACCCGAGAACGAGGAUGAGCUGGAGAGCACCAACAGGCGCUACACCAAGAGGGACUGCAGCACUUUUCUCAGAACUAGUGAGACGGGCAUCGUGGACCAGGUCAUGGUAACUCUCAAC | 0.12
UCUGAGGUACCACUGAAGAGACCUUAAAAGAAUCAUUUGAGGGCUCUGUUCGUGCAAGAAUAGUCACUGAUCGGGAAACUGGUUCUUCCAAAGGGUUUUGGUUUUGUGACUUUAAUAGUG | 0.291
GUGACUGGUGUUAAGAUUUCCCCUCAGAAAAGAACUGCAGUAGUCACCAUAAUUCCAUCUGUGGUGAGUGCCAGUCAGAUUGUGGAGCUGGUCCCAGACCUCAGUUUAGACAUGGGAACU | 0.271
GAAACAUUUAAAUUUAAAGAAGCUGUUGUUUUAGGGAGCACGGACUUUCUAGAAGAUGAUAUAGAGAAAAUUGUAGAAGAACUGGGGAAAGAGUAUAAGGGCAACGCCUACCAUCUGAUG | 1.82
GAUCCACAGUGGUCUGAGGAGCAACUCAUUGCUGCAAAAUUUUGCUUUGCUGGCCUUGUUAUAGGGCAGACUGAAGUGGACAUCAUGAGUCAUGCCACACAAGCUAUAUUUGAAAUACUG | 0.158
CGGAGCCCCUCCCUCUCACAGGCCCAAGAUAUAACCCACCAGUGCCUUUUGUCUUCCUGUCAGCUCUAAUCAAUCAUCCUGUCCUCUCACGCCCACACCAAGUGCCCAAAGUGGGGAGGG | 0.315

Block 3
Target: RNA binding protein fox-1 homolog 2, RRM domain, GST-SBP tag (RBFOX2, Homo sapiens, UniProt O43251-10, residues 100-194)
Method: RNA Bind-n-Seq
Form: RNA
Matrix: in vitro
Tested at: 365 nM
Notes: natural RNA segment, single round, ends assumed
Baseline: no-protein control
Direction: higher = stronger binding
All sequences stand within: GGGAGUUCUACAGUCCGACGAUC … UGGAAUUCUCGGGUGCCAA
Construct (chain): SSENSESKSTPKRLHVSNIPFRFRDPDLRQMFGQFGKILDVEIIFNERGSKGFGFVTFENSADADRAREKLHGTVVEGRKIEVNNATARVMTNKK
Strand | RBNS enrichment (R)
CGUUUGGUACGUAUCAGUGAAUUAUUGGACAGUUAGCUUAUAACUUAUAGGCAGUCACUAUAAAUUAUAAUUGUGGGCACUAGCAAUAUACAUAACAGAAGAAACAACAA | 0.5
AGGGCUGAGGGUCUCCAACCGAUGCAUAGAUACAUUGAAAUACUUUAGAUUUCCCACAUGGAUGGUUUGAGACUAGAGAAAUACUUUUCUCUAGUUCGUUGGUUUUUAAC | 2.16
CACAGGACACUUCACUGCCAUUUUCUAUGCACAUGGAAGAAUAAUAAAUGUGGAAAUUUCAUCCUGGAGAAUGUGUUCUUGCAGUUCUUCUGGGUGCGAUCAUGGAAACA | 0.241
UGUGAAACACGACAUGAUCAAAGGAGACAGACAGUAUUUUGACUAAUAUGAAGUAGAGAUUACUUUACACUACAUUGUACAUGGAGUAAUUCAACUGAAUAAAAGUGUCA | 0.372
GAAAGGCGUCACUCUGCCAGAGUGUGACUUUUUACAGAUUAAAUAAAGCUGUAUAUGUCUCAUUGUUCCCGGCUGCUGGUGUUAUUUCUCCAAAGCGACUCUCCAAGGCU | 0.226
UGACUGCCAUGUGUUCAUCAUCUUAAGUAUUGUAAGCUGCUAUGUAUGGAUUUAAACCGUAAUCAUAUCUUUUUCCUAUCUAUCUGAGGCACUGGUGGAAUAAAAAACCU | 0.357
UUAACUGUGAAUUCACCCCUCCUCCUCCACUGCAUAUUUAAAGCAUGUGUUCACACUGUGUGUAAACAUUCACUGAAGAUUUUUUCUUUGUGCAUUGCUGACUGUUCAAA | 0.982
GCCUCCUCUCUGAUCAGAGCCGACACCAGACGUGAUUAGCAGGCGCAGCAAAUUCAAUUUGUUAAAUAAAUUGUAUUUUGCCCACGGCUGCUUCUGUUUGAUCCCCAGGG | 0.361
CAGCAUAUAAAAACAUCAGUCCCGAGGAGGGGACAACAAUACUACCUCACUACUACAUCUGUGAUGACUGGUUGUUCAAACACAAUGGAGUGUGUAAGGUAUAUGUUUUA | 1.29
ACUUUCCCACACUGUGCCUUUACGAUCAGCGUGACAGAGUAGAAGCUGGAGUGCCUCACCACACGGCCCGGAAACAGCGGGAAGUAACUGGAAAGAGCUUUAGGACAGCU | 0.289
UAAAGAUUUUGUUUUGCCCUGCAAAUAAAAAGACAAUUCCUUAUUGUCUGAAUGUAAUACAGUCUUCAUUGUACUAUUCAACCCUUUGUUUCUUUCUUUUUCAUUUUGUG | 0.717
UAUAAAAGUGCGGUGUAACCAUAGACCAUAGCUGCAGGAUAACCAAUUAGUCACUCUUAGAGUAAUCUGUAUUCAGAACAAUUCAAACAAGCUGGAGGAACAGCUCCUGA | 0.474

Block 4
Target: Histone acetyltransferase KAT6A, winged helix 1, GST fusion (KAT6A, Homo sapiens, UniProt Q92794, residues 1-85)
Method: protein binding microarray
Form: double-stranded DNA, one strand shown
Matrix: in vitro
Tested at: not given
Notes: 8-mer, flanks averaged, mean of 2 arrays, mostly near background
Baseline: not given
Direction: higher = stronger binding
Construct (chain): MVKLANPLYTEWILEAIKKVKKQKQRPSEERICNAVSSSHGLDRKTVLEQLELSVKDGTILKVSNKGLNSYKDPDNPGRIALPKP
Strand | E-score
AAAGGGCA | -0.2
CACTAGCC | 0.264
CTTCTCTC | -0.122
CCGGACCC | 0.202
AAGTTAAG | -0.18
GCTGCTCA | -0.14
ATCCGCGG | 0.406
ATCATCGA | -0.149
GAGCACCC | 0.0525
CCAAAAAA | -0.203
AACGCAAG | -0.0857
CATATCCA | 0.0107
CAGGACAG | -0.218
ATGACTGG | -0.171
AGGGGACA | 0.022
GCCCTGGA | -0.0845
ATTACCGG | 0.314
ACTGAGCC | -0.0487
CGACTGTC | 0.0305
CAACCCCC | -0.101
GCATAAAC | 0.0641
GACTCCAC | -0.0806
ACCGACGG | 0.455
GCCTTCAA | -0.0367
CTCCGCAG | 0.0535

Block 5
Target: Sal-like protein 4, full length isoform B (SALL4, Homo sapiens, UniProt Q9UJQ4-2, residues 1-616)
Method: universal PBM
Form: double-stranded DNA, one strand shown
Matrix: in vitro
Tested at: not given
Notes: 8-mer, flanks averaged, mean of replicates
Direction: higher = stronger binding
Target sequence (chain): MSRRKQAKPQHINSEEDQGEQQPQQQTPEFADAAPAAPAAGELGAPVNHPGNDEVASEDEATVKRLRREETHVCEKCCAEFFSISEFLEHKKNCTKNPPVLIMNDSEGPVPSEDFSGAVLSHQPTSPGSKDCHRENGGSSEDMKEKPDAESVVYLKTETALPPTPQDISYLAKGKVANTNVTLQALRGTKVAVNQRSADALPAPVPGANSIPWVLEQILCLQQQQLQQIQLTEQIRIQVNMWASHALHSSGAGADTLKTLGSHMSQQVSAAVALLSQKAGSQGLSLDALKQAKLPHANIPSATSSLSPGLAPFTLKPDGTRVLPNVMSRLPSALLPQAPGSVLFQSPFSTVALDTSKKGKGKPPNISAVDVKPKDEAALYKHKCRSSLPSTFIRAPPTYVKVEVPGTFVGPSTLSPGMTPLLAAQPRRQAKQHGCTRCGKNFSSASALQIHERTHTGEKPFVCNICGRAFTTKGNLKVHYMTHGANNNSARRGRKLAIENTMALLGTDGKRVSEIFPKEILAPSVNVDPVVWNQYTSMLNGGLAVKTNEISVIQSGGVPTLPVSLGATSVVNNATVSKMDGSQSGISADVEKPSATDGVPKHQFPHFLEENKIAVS
Strand | E-score
ACAATTGT | 0.235
ACTGCGGC | -0.301
TACCAGCA | 0.00221
ACACTTTC | 0.057
GCATCCAC | -0.101
AGGAGACG | -0.266
AATGGCCG | -0.216
CACAGTAC | 0.0443
GATTGTCA | 0.141
ACCTTCAG | -0.00279
CGAATAAC | 0.0691
TCCAGCGA | -0.0719
AGGCATCC | -0.0546
AAGCGAGG | -0.105
CCCGCATA | 0.126
ATTGCCCA | 0.0701
CGATCAAC | -0.0857
CAGCGGGG | -0.275
CCCCTCCG | -0.236
ACTGCTAG | -0.0883
AAACGAAA | 0.12
ATCCTAGC | -0.00088
CTCCGAGC | -0.206
CTCTTCGA | 0.0106
ACTCATCT | 0.165

Some of these lines once more (block 4):
Strand | E-score
AGGGGACA | 0.022
GCCCTGGA | -0.0845
ATTACCGG | 0.314
ACTGAGCC | -0.0487
CGACTGTC | 0.0305
CAACCCCC | -0.101
GCATAAAC | 0.0641
GACTCCAC | -0.0806
